Published values of several laboratories.
Each line is one published result; not all experiments were run side by side.
Organism: Pseudomonas aeruginosa

For CC(C)C[C@H](NC(=O)[C@@H]1CSCC(=O)N[C@H]2CCCCNC(=O)CSC[C@H](NC(=O)[C@H](CCCCN)NC2=O)C(=O)N[C@@H](CCCCN)C(=O)N[C@@H](CC(C)C)C(=O)N1)C(N)=O, the MIC was > 256 µg/mL (PAO1; 18 h).
The MIC of O=C(NCCNCCO)c1cn(Cc2ccccc2)c2cc(OCc3ccc(C(F)(F)F)cc3)c(Cl)cc2c1=O is reported as > 32 µg/mL (ATCC 27853; ≥80% growth inhibition).
The MIC of CCCCCCCCCCCCC[C@@H](O)Cc1cc(O)cc(O)c1 is reported as > 64 µg/mL (broth microdilution; PAO1 chloramphenicol-resistant; 37 °C).
For C[C@@](O)(C(F)F)[C@H](NC(=O)c1ccc(C#CC#CC2CC2)cc1)C(=O)NO, the MIC was 0.5 µg/mL (broth microdilution; PAO1, CAMHB with 50% mouse plasma).
With CC(C)[C@H](NC(=O)[C@H](CCCCN)NC(=O)[C@H](CCCNC(=N)N)NC(=O)[C@@H](NC(=O)[C@H](C)NC(=O)[C@H](CC(N)=O)NC(=O)[C@H](CCCNC(=N)N)NC(=O)[C@@H](NC(=O)[C@H](CCCCN)NC(=O)[C@H](CCCCN)NC(=O)[C@@H](NC(=O)[C@@H](NC(=O)[C@H](CCCNC(=N)N)NC(=O)[C@H](CCCNC(=N)N)NC(=O)[C@H](Cc1c[nH]c2ccccc12)NC(=O)[C@H](Cc1c[nH]c2ccccc12)NC(=O)CN)[C@@H](C)O)C(C)C)C(C)C)C(C)C)C(=O)O the MIC was 8 µg/mL (ATCC 27853; 18 h, 37 °C).
CC[C@H](C)[C@@H]1NC(=O)[C@H](CC(C)C)NC(=O)[C@@H](NC(=O)[C@H](CO)NC(=O)[C@H](CCCNC(=N)N)NC(=O)[C@@H](N)CO)CSSC[C@@H](C(=O)N[C@@H](CCC(N)=O)C(=O)N[C@@H](CCCNC(=N)N)C(=O)N[C@@H](CC(C)C)C(=O)N[C@@H](Cc2ccccc2)C(N)=O)NC(=O)[C@H](C(C)C)NC1=O has an MIC of > 100 µg/mL (broth microdilution; ATCC 27853).
CC[C@H](C)[C@H](NC(=O)[C@H](CC(C)C)NC(=O)[C@H](CO)NC(=O)[C@H](CC(C)C)NC(=O)[C@@H](N)CCSC)C(=O)N[C@@H](Cc1ccccc1)C(=O)N[C@@H](CC(C)C)C(=O)N[C@@H](Cc1c[nH]cn1)C(=O)N[C@@H](CCCNC(=N)N)C(=O)N[C@@H](CC(C)C)C(=O)N[C@@H](CCCCN)C(=O)N[C@@H](CO)C(=O)N[C@@H](CCSC)C(=O)N[C@@H](CCCNC(=N)N)C(=O)N[C@@H](CCCCN)C(=O)N[C@@H](CCCNC(=N)N)C(=O)N[C@@H](CC(C)C)C(=O)N[C@@H](CC(=O)O)C(=O)N[C@@H](CCCNC(=N)N)C(=O)N[C@@H](CCCCN)C(=O)N[C@@H](CC(C)C)C(=O)N[C@@H](CCCNC(=N)N)C(=O)N[C@@H](CC(C)C)C(=O)N[C@@H](Cc1c[nH]c2ccccc12)C(=O)N[C@@H](Cc1c[nH]cn1)C(=O)N[C@@H](CCCNC(=N)N)C(=O)N[C@@H](CCCCN)C(=O)N[C@@H](CC(N)=O)C(=O)N[C@@H](Cc1ccc(O)cc1)C(=O)N1CCC[C@H]1C(=O)O has an MIC of 80 µg/mL (ATCC 27853; together with: 1 mM MgCl2).
With CC[C@@H](C)[C@@H](NC(=O)[C@@H](C)NC(=O)[C@@H](CCCCN)NC(=O)[C@@H](CC(C)C)NC(=O)[C@@H](C)NC(=O)[C@H](NC(=O)[C@@H](Cc1c[nH]cn1)NC(=O)[C@@H](CC(C)C)NC(=O)[C@H](NC(=O)[C@H](NC(=O)[C@@H](CCCCN)NC(=O)[C@@H](CCCCN)NC(=O)[C@@H](C)NC(=O)[C@@H](CO)NC(=O)[C@@H](CCCCN)NC(=O)[C@@H](Cc1ccccc1)NC(=O)[C@H](NC(=O)[C@@H](CCCCN)NC(=O)[C@@H](CC(C)C)NC(=O)[C@@H](Cc1ccccc1)NC(=O)[C@@H](CO)NC(=O)[C@@H](CCCCN)NC(=O)[C@@H](Cc1c[nH]c2ccccc12)NC(=O)[C@@H](CCCCN)NC(C)=O)[C@H](C)O)[C@H](C)O)C(C)C)[C@H](C)O)C(=O)N[C@H](CO)C(=O)N[C@H](CO)C(N)=O the MIC was 2.6 µM (broth microdilution; PAO1; 24 h, 37 °C).
CC(C)C[C@@H]1NC(=O)[C@@H](CC(C)C)NC(=O)[C@H](CCN)NC(=O)[C@@H](NC(=O)[C@H](CCN)NC(=O)[C@@H](N)[C@@H](C)O)CCNC(=O)[C@H]([C@@H](C)O)NC(=O)[C@H](CCN)NC(=O)[C@H](CCN)NC1=O has an MIC of > 64 µg/mL (broth microdilution; NDM1, NRZ 08418, CAMHB with polysorbate-80; 16 h, 37 °C, together with: 0.002% polysorbate-80).
For N=C(N)NCCC[C@@H]1NC(=O)[C@H](CCCCN)NC(=O)[C@H](CCCNC(=N)N)NC(=O)[C@H](CCCNC(=N)N)NC(=O)[C@H](CCCNC(=N)N)NC(=O)[C@H](CCCNC(=N)N)NC1=O, the MIC was > 114 µg/mL (broth microdilution; PAO1; 37 °C).
For CC(C)C[C@@H]1NC(=O)[C@H](CC(C)C)NC(=O)[C@H](CCCCN)NC(=O)CSC[C@@H](C(=O)N[C@@H](CCCCN)C(N)=O)NC(=O)[C@H](CCCCN)NC(=O)[C@H](CC(C)C)NC(=O)[C@H](CCCCN)NC(=O)[C@@H]2CSCC(=O)N[C@@H](CCCCN)C(=O)N[C@@H](CC(C)C)C(=O)N[C@@H](CC(C)C)C(=O)N[C@@H](CCCCNC1=O)C(=O)N[C@@H](CCCCN)C(=O)N[C@@H](CC(C)C)C(=O)N[C@@H](CC(C)C)C(=O)N2, the MIC was 128 µg/mL (PAO1; 18 h).
CC1C(=NNC(=O)c2ccncc2)C(C)C(c2ccc(Cl)cc2)OC1c1ccc(Cl)cc1 (stereo not drawn) gave an MIC of 25 µg/mL (microbial growth, broth dilution; MTCC741; 24 h).

Excerpt of the above:
CC1C(=NNC(=O)c2ccncc2)C(C)C(c2ccc(Cl)cc2)OC1c1ccc(Cl)cc1 (stereo not drawn) gave an MIC of 25 µg/mL (microbial growth, broth dilution; MTCC741; 24 h).
With CC(C)[C@H](NC(=O)[C@H](CCCCN)NC(=O)[C@H](CCCNC(=N)N)NC(=O)[C@@H](NC(=O)[C@H](C)NC(=O)[C@H](CC(N)=O)NC(=O)[C@H](CCCNC(=N)N)NC(=O)[C@@H](NC(=O)[C@H](CCCCN)NC(=O)[C@H](CCCCN)NC(=O)[C@@H](NC(=O)[C@@H](NC(=O)[C@H](CCCNC(=N)N)NC(=O)[C@H](CCCNC(=N)N)NC(=O)[C@H](Cc1c[nH]c2ccccc12)NC(=O)[C@H](Cc1c[nH]c2ccccc12)NC(=O)CN)[C@@H](C)O)C(C)C)C(C)C)C(C)C)C(=O)O the MIC was 8 µg/mL (ATCC 27853; 18 h, 37 °C).
